Measurements of several laboratories.
Numbered parts are unrelated; each lists some results of a single study. Substitutions count along the parent as printed.

Study 1
Target: RING finger protein unkempt homolog, zinc fingers 1-6, GST-SBP tag (UNK, Homo sapiens, UniProt Q9C0B0, residues 30-357)
Method: RNA Bind-n-Seq
Molecule type: RNA
Sample: in vitro
Tested at: not given
Setting: RNA with constant flanks, ends assumed
Relative to: input RNA pool
Reading: higher = stronger binding
Shared flanks, not repeated: GGGAGUUCUACAGUCCGACGAUC … CAACAGAGGAUUGAGCAUCA
Target sequence (chain): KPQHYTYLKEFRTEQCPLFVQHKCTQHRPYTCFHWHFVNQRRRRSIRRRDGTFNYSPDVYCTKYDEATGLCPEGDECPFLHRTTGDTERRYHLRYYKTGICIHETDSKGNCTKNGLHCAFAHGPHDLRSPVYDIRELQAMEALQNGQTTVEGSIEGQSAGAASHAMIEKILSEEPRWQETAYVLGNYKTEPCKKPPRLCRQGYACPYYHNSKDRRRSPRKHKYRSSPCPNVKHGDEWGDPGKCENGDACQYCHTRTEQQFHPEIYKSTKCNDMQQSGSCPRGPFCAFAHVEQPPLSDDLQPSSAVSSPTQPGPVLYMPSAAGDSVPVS
Strand | bound/input enrichment
UCUUCUGUUAUCCCUGGGGGUGCUCAGGUUCACUUGAUUGUCUGUAUUUCUGUGUGGUUGCCGCAAGGACUCAGCCUCAUGUAGCACGAAUAGGGGUGUGGUUCAUGGCGUGUUGACCCA | 0.234 ratio
UUUCUCCGUCGCCACAAGCGGCCCGGUGGCAUGUGCUAAGGCGGCUUCCGCUGUUUCAGUCCCGAUUUUUUUCUUAACAGUCCCAUUCCAAUUCUUUUGCAAGCAAAGAAACUGAGGCUG | 0.16 ratio
AUCUCCAAGUUUAAAAAGUUUGAGGUACAGAGGGAAGGCCAGAUUUUUUUAAUGAAAUUAUACCGAUCCGAUCUCAGUAUUUAAACUGUUCCUCAAUUUUGUGAGGCUGUGUUGGAAAUA | 0.476 ratio
UCUCCUGAUCUAAUGAGCUUUAUGAUGGAGUUGAAGAUGCUUUUGGAAGUUGCCUUAAAGAACCGACAAGAGCUGUAUGCACUACCUCCUCCUCCCCAGUUCUACUCAAGCCUUAUUGAA | 0.0974 ratio
AUAGAGGCAGCACCCGAGUCCCAGAUGAUGCCAGCAAGCGUCUUAACUGGGAACGUUAUCACCGAAACAAAGUUUUUUGACGACGAUCUUCUUGUAAGCACAUCCAGAGUGAGACUUUUC | 0.347 ratio
GACUUGCUUCUGCAGGCUUGUCCAUUUGGUACUUUAUUAGAUGCCAACUUACAGAAUUCAUCCGAUAAUACCAAUUUUGCAUCUGUGACUCAGCCACAGAAACAGCCAGCUUGGAAAACU | 0.109 ratio
GAAGGUUCCAAGACCUGGGAUCGAUUCCAGAUGAGGAUCCACAAGCGACUCAUUGAUUUACACCGUCCUUCUGAGAUUGUUAAGCAGAUUACUUCCAUCAGUAUUGAGCCGGGAGUUGAG | 0.169 ratio
CCACUUCCAGGACCUAACCCCAUCUUGCCAGGGCGAGGCGGCCCCAAUGACAGAUUUCCCUUCCGACCCAGCAGGGGUCGGCCAACUGAUGGCCGGCUGUCAUUCAUGUGAUUGAUUUGU | 0.378 ratio
UGCGUUUUGUGUAGAGAAUAAGGAACGUGGAUCUUUUUAUUUUGCAAUCCUGGGCCAGCCCGAUACCGGGAGCUAAUUGACCUUUUAACCUUUUCAGUGGCCACCUUUUGGUUAUCAAUG | 0.197 ratio
ACCUUUGACCAGGCCACGGGAGGGACCGCGCAGUUUGAAGCACACUCUGAUGCUCAGGCUCCCGUUCUCUUAGAUGUCACACCUGACCAGUCAAUGGUGGAUGAGGGCAUGGCUCGGGAA | 0.0792 ratio
GCAAGAAUUGAUGCUGUGAAUGCUGAGACAAUUCGAGAAGUAUGUACCAAAUACAUUUAUAACCGGAGUCCAGCUAUUGCUGCUGUUGGUCCCAUUAAGCAACUACCAGAUUUUAAACAG | 0.238 ratio

Study 2
Target: RNA binding protein fox-1 homolog 2, RRM domain, GST-SBP tag (RBFOX2, Homo sapiens, UniProt O43251-10, residues 100-194)
Method: RNA Bind-n-Seq
Molecule type: RNA
Sample: in vitro
Tested at: 365 nM
Setting: natural RNA segment, single round, ends assumed
Relative to: no-protein control
Reading: higher = stronger binding
Shared flanks, not repeated: GGGAGUUCUACAGUCCGACGAUC … UGGAAUUCUCGGGUGCCAA
Residues (chain): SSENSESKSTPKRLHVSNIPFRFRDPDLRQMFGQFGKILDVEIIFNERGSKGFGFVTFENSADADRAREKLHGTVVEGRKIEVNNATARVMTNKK
Strand | RBNS enrichment (R)
UGAUUCCUCAAGAAUGAAAUGAAGGCACUACAUUGAAAUAUGUUUUGUAUAAAUUUGUCAUGUUGAACAGCAUUUUAGCAUGGUAAGUUCCCUUAGCUAUAUGAAUUUUG | 0.506
CACCUUUCCUGUGGCCCAACCUUUUAUUUAAAUGUGCUACCCUCUGCCUCAAGGCUUGGUUCCUGGAAAGUAAAGGUGAAAACAUCCCCUUUCACCCCUCUGCAAAACAA | 0.842
CAGGGCAGAGGAAACAAAACACAGCUAUCCUGUUGGCCUGUGUUGUGGUUUUGAAGUUUGUACUUUCUCUGUGGGUGCCAGUUAAAUAUUGGAGAGCAAGGAAUGUGGAC | 1.04
AAGUUAUACACAUUGAAGACCCUAAAAAUCCCAGUCCAUCAUUCAGCUUACCUCUGCGAACUUCUAUCUGGUAUUGAAUCAGUUUCAGAAACACAGACAGAUCCAAGGAA | 0.263
CCCCCAAAAGGCUCAGGAGCUGACUUUUAGAAGUGAGGUUCAAAGUCUUUAACCACUUCUGAAUCUCAUAUGGCCUGUUGCUCUUGGUCUUGCUAGACUCCCGUUUGUUC | 0.44
AUGCUUAAGAUUUGAUUUUUACUUUUCAAAGCAACAUUUUGUUGAAUUUUUUUCUGCACAGCUUUCCAAAAUAAAAAGCAGAAGUAUAAAAACCCAAACAAGUCCACCAC | 0.424
ACUGUACUCUAGCCUGGGUAACAGCCAGACCCUGUCUCAAAAAAAAAAACAAUUUUUUUCAUAACAUAAUUCCCAUUUUUAUUUAUUUUGAGUCACUCAUAAUUAAUUGC | 0.693
UGCUUAGUUGCCAAACAAGGGGUCUUCCACCCCCUAUUCUACUGAUUUCUGGACCCAGGGAAGGGAACUCAGCCCCUUACAACUCUUGGGGCUCCUCCAGGCCAGGGCCC | 0.356
GAGCCGCCACCGGCAACUAACCUAUGACCUUCUGACCUCUGAACUCUUCACCCAAUGAUGACCUGACCAUGCCUGCCUGCUGAUCAGUUAACUGGUAAUCGCCUUUGCUU | 0.501
CCUCUUUCCCACCUGUCCCAGGACCAGAAUCCCAGGGACAGAGGACUGGGUAGCAGGUUCCUUCUGUUGUCCUGUGUGGUGUGUCUACUGUGAGGGUGGGCCCUGAGGAG | 0.303
UUUUUGUAUCAAAAAUAAAGGUUAUUUUGAAAUUAUUAGGAUUUUUACACAAUUCUGAAAUCUGUUGCUUUUGUAAACAAAUUGUUUGAUCUUAGUGAUCCCCCUACUAC | 0.418
UCUCUAUUCUAUCCUGGGUCUGCCUCAACCGUGAGAUAGGAGAGUCUCUGGUACUAGCUGCUGUAGCAGUGCCCUUCAUCCAGGGCAGUUAAUGGAGUCUUGGACCCUUU | 0.456

Study 3
Target: CCND1, cyclin fold, Cln2 fusion (human)
Method: yeast growth competition, sequencing
Sample: yeast
Setting: strong parent motif
Relative to: not given
Reading: higher = stronger binding
Parent: INSM1 docking peptide (human); PKAIRKLHFEDEV; partner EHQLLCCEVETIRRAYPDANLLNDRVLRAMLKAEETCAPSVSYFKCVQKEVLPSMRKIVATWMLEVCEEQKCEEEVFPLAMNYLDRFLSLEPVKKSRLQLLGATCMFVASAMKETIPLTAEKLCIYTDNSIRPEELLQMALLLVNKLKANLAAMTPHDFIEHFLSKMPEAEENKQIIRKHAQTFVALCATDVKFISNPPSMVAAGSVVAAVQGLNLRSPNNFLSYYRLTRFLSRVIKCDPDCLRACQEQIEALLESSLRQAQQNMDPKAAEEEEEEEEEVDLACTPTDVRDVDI
Change | normalised enrichment score
PKAIHKLHFEDEV [R5H] | 0.23
PSAIRKLHFEDEV [K2S] | 5.3
PKAKRKLHFEDEV [I4K] | 4.06
PKAIRFLHFEDEV [K6F] | 2.67
PKAIRCLHFEDEV [K6C] | 4.26
PKMIRKLHFEDEV [A3M] | 0.397
PKAIRDLHFEDEV [K6D] | 0.72
PKAIQKLHFEDEV [R5Q] | 1.63
PKAIRKCHFEDEV [L7C] | 0.163
PKAIRKLHVEDEV [F9V] | 0.0931
PKAIRMLHFEDEV [K6M] | 3.61
PKAILKLHFEDEV [R5L] | 1.37
PKAIRKPHFEDEV [L7P] | 0.0936
PKAICKLHFEDEV [R5C] | 1.9
PKAIVKLHFEDEV [R5V] | 1.48
PKAIRKLHFGDEV [E10G] | 5.5
PKAIRKLHGEDEV [F9G] | -0.167
PKAIRSLHFEDEV [K6S] | 1.91
PKAIRKLHFEDKV [E12K] | 3.31
PFAIRKLHFEDEV [K2F] | 3.25
PKAIRKLHLEDEV [F9L] | 0.898
PKAIRKLLFEDEV [H8L] | 5.92
PKQIRKLHFEDEV [A3Q] | 0.0909
PKAIEKLHFEDEV [R5E] | 0.658
PDAIRKLHFEDEV [K2D] | 2.1

Study 4
Molecule: PhoQ, residues 284 288 289 292 302 303 SCCLKL
Method: Sort-seq
Item: YFP reporter
Sample: E. coli
Setting: PhoQ-PhoP variant library
Added: 10 µM Mg2+
Relative to: high Mg2+ state
Reading: higher = stronger signaling
target | fold induction
PhoP, residues 12 14 15 18 19 NFFVT (Escherichia coli, UniProt P23836) | 6.54
PhoP, residues 12 14 15 18 19 VGHWL (Escherichia coli, UniProt P23836) | 2.56
PhoP, residues 12 14 15 18 19 LHHYF (Escherichia coli, UniProt P23836) | 1.07
PhoP, residues 12 14 15 18 19 TPWTL (Escherichia coli, UniProt P23836) | 1.68

Study 5
Target: ABI1, truncated, D143A, DHFR fusion (Arabidopsis thaliana)
Method: DHFR PCA, deep sequencing
Sample: yeast
Setting: methotrexate growth selection, single substitutions
Added: (+)-ABA 0.11 µM
Relative to: wild-type fitted maximum
Reading: higher = stronger binding
Parent: PYL1, truncated, DHFR fusion (Arabidopsis thaliana); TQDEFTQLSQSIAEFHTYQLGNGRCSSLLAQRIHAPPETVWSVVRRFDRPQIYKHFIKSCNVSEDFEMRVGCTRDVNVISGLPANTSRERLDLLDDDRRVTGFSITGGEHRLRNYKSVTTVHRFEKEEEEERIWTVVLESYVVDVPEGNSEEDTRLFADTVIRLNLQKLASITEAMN
Change | relative binding score
F66W | 15.3%
F15T | -2.28%
S87Q | 59.3%
R46Q | 41.6%
G21P | 13.9%
S26W | 0.91%
C60R | 8.82%
S80R | 2.9%
R24F | 0.0866%
E127M | 41.9%
S63I | 9.26%
L28P | 0.353%
N149G | 63.5%
G107L | -2.96%
Y115T | -3.27%
L82T | 6.94%
V161N | 16.8%
D95I | -8.55%

A few entries again (study 1):
Strand | bound/input enrichment
CCACUUCCAGGACCUAACCCCAUCUUGCCAGGGCGAGGCGGCCCCAAUGACAGAUUUCCCUUCCGACCCAGCAGGGGUCGGCCAACUGAUGGCCGGCUGUCAUUCAUGUGAUUGAUUUGU | 0.378 ratio
AUCUCCAAGUUUAAAAAGUUUGAGGUACAGAGGGAAGGCCAGAUUUUUUUAAUGAAAUUAUACCGAUCCGAUCUCAGUAUUUAAACUGUUCCUCAAUUUUGUGAGGCUGUGUUGGAAAUA | 0.476 ratio
GCAAGAAUUGAUGCUGUGAAUGCUGAGACAAUUCGAGAAGUAUGUACCAAAUACAUUUAUAACCGGAGUCCAGCUAUUGCUGCUGUUGGUCCCAUUAAGCAACUACCAGAUUUUAAACAG | 0.238 ratio
GAAGGUUCCAAGACCUGGGAUCGAUUCCAGAUGAGGAUCCACAAGCGACUCAUUGAUUUACACCGUCCUUCUGAGAUUGUUAAGCAGAUUACUUCCAUCAGUAUUGAGCCGGGAGUUGAG | 0.169 ratio
UCUUCUGUUAUCCCUGGGGGUGCUCAGGUUCACUUGAUUGUCUGUAUUUCUGUGUGGUUGCCGCAAGGACUCAGCCUCAUGUAGCACGAAUAGGGGUGUGGUUCAUGGCGUGUUGACCCA | 0.234 ratio
UUUCUCCGUCGCCACAAGCGGCCCGGUGGCAUGUGCUAAGGCGGCUUCCGCUGUUUCAGUCCCGAUUUUUUUCUUAACAGUCCCAUUCCAAUUCUUUUGCAAGCAAAGAAACUGAGGCUG | 0.16 ratio
